Measured values collected from several papers.
Each numbered part is a random draw from the data of one study; scales do not carry over between parts.

Sample 1 — technique: RNA Bind-n-Seq; form: RNA; medium: in vitro; tested at: not given; baseline: input RNA pool; reading: higher = stronger binding
Target: RING finger protein unkempt homolog, zinc fingers 1-6, GST-SBP tag (UNK, Homo sapiens, UniProt Q9C0B0, residues 30-357)
Chain of UniProt Q9C0B0 (30-357, looked up): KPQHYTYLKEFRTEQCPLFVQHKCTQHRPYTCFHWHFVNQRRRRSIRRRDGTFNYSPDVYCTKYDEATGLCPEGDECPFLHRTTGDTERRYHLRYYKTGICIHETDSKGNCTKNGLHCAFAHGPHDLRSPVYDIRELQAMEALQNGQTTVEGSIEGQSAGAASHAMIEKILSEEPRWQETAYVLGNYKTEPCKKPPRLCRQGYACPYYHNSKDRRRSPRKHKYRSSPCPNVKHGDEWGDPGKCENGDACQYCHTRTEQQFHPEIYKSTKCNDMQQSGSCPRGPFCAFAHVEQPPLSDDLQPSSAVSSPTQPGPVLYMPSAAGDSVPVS
Setting: RNA with constant flanks, human and mouse sites, ends assumed
Constant ends, left off below: GGGAGUUCUACAGUCCGACGAUC … CAACAGAGGAUUGAGCAUCA
Strand | bound/input enrichment [ratio]
CUAUCCAGGAUUCAUCCCGUGUCAACAAUGGUAAAGGGGAUGUAUGGCAUUGAGAAUGAAGUCUUCCUGAGCCUUCCAUGUAUCCUCAAUGCCCGGGGAUUAACCAGCGUUAUCAACCAG | 0.111
GCCACCAUGAAAACCUUCUGUGGUACCCCGGAGUACUUGGCGCCUGAGGUGCUAGAGGACAAUGACUAUGGGCGAGCAGUGGACUGGUGGGGGCUGGGUGUGGUCAUGUAUGAGAUGAUG | 0.487
GAGACCUUUUCCAGUUAUAUCAGUGUUCACAAUGACAGCAAUCAAGUUGUAAAAGAUAUAUUGGUGAAGGCGGAUCUGCAGACGAGUUCUCAGCGUUUAAACCUUUCAGCCUCCAAUGCU | 0.226
GGGGCAUUAAUUGCUUCUCUUAUCAACUGCUACAUCAGAGAUAAUGCCGCUGUUGAUGGCAUUAGUUUACAUUUACAGGAUAUCUGCCCACUUCUAUAUAGCACUGAUGAUGCAAUUUGU | 1.27
AAGGUGCUUGAGCCAUACCCAUCUAAAUUAAGUGGCCUGAAAGGUAAAAAUAUUUUCUUGGUGGCUGCUACUCUCAGACCUGAGACCAUGUUUGGGCAGACAAAUUGUUGGGUUCGUCCU | 0.269
AGUAACACAGCAUCUGGUGGAAUGACACGACGAAAUACUUAUGUUUGCAGUGAGAGAACUACAGCUGAUAGACACUCAGUGAUUCAGAAUGGCAAAGAAAACAGCACUAUUCCUGAUCAG | 0.115
GAAGUGGUGUCACCAUCUCAGUCCGUGACUGGCAGUGCUGGUCACACACCUUACUAUCAAUCUCCUACUGACGAGAAAUCCAGUCAUCUCCCUACAGAAGUCAUUGAAAAACCACCAGCA | 0.212
UGCGUCCUUUUUCGUUUUUCGGAUGAUGCCUUCAAUACUACCUUUAUUUCCACCAUAGGAAUAGACUUCAAGAUCAAAACAGUUGAAUUACAAGGAAAGAAGAUCAAGCUACAGAUAUGG | 0.281

Sample 2 — technique: protein-binding microarray; form: double-stranded DNA, one strand shown; medium: in vitro; tested at: not given; reading: higher = stronger binding
Target: Transcriptional repressor CTCF (CTCF, Homo sapiens, UniProt P49711, residues 1-727, full length assumed)
Setting: k-mer, scored over probes, only values ≥0.25
Construct (chain): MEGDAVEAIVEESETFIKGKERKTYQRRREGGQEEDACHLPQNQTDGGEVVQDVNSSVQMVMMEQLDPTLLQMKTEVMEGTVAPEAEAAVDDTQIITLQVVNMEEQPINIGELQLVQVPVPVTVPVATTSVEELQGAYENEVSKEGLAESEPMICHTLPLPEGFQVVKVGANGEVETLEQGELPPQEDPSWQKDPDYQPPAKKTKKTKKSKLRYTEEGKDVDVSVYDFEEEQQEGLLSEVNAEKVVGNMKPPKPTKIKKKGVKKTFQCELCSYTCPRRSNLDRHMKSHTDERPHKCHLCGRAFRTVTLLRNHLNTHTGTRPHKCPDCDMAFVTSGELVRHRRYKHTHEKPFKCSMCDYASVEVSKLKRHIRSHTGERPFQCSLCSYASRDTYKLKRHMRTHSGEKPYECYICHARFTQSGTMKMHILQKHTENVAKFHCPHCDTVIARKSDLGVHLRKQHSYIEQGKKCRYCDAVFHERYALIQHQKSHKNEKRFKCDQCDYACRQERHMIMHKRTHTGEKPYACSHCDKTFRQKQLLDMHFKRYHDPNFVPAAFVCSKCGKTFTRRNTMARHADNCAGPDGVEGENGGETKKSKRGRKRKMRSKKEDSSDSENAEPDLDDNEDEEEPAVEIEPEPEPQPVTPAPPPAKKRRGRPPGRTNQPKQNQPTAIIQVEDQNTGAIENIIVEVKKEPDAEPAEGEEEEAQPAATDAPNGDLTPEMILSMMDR
Strand | E-score
GAATATAC | 0.254
TTATATAA | 0.396
TAGTTATA | 0.262
CCGACAGG | 0.306
CGCATAAA | 0.335
ATAAACTA | 0.262
AATTATCA | 0.338
TATGAATA | 0.256
GTAAAGTA | 0.259
AGGGGAGG | 0.316
TAGCGAAA | 0.251
AAATTAAT | 0.262
TAAAAGTA | 0.252
ATGTACAT | 0.261
GATTTATA | 0.272
ATAACGTA | 0.271
GGCGCAAA | 0.356

Sample 3 — technique: protein-binding microarray; form: double-stranded DNA, one strand shown; medium: in vitro; tested at: 0.8 µM; setting: whole 60-bp probe, no competitor; reading: higher = stronger binding; constant ends, left off below: … GTCTTGATTCGCTTGACGCTGCTG
Target: Centromere-binding protein 1, full length, N-terminal tag (CBF1, Saccharomyces cerevisiae, UniProt P17106, residues 1-351)
Chain of UniProt P17106 (whole entry, looked up): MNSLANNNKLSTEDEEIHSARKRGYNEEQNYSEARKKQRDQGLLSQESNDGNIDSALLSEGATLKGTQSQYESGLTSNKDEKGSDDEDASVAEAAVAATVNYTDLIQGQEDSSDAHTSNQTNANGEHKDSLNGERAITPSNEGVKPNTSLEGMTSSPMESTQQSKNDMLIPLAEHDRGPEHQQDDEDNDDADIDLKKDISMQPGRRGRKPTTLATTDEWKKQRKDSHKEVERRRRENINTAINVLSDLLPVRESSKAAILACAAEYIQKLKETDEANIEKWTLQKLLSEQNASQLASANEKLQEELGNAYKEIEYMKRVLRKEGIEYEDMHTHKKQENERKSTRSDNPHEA
Strand | fluorescence intensity
CTAGGACAAATGAAGCACATGCAAAGAGTTAACTTC | 739 a.u.
CTATTCCTTTTACCTCGTGAAAGGACTATATATTTC | 581 a.u.
GAATTTTTGCTTAAATAGGTGACACAAAATGGATAG | 608 a.u.
CTACTACAACTTTGGCGCGTGAGCCAAGTGTCTTTC | 559 a.u.
CTACTTCTAATCAAACACGCGGAAATAGCCGCCTTC | 572 a.u.
CTATCATTTCTTCGTGACGTTGGTGACAGGAATTTC | 652 a.u.
GAATTTGGGTCACCGTACGTGAACATTGGTTTGTAG | 585 a.u.
CTATCTGGAAAATTCCACGAGGTCCGTATATGATTC | 537 a.u.
GAAACCGTATTATGCGACGTGCTTGCGATCCTTTAG | 542 a.u.
GAAATCCTTGAAAACGGCATCAGGATGCACAAATAG | 491 a.u.
CTAGGGTTGAACGAACGTCACATGTGTACGGATTTC | 3690 a.u.
CTACAAAAAATGGAGAACATCAGGAACAAAGCGTTC | 550 a.u.
CTAAGAGAAATTTCCCGCCACATGAACTGAGTCTTC | 576 a.u.
GAATCTCCGAGACACGTGCTAATATCTATTTCATAG | 8590 a.u.
CTAACTCCCCCTTACCACGACTACAAAGAGCTATTC | 518 a.u.
GAAATGCCCAGGGAACACGTTGATTTAGAAGCATAG | 541 a.u.
CTAATTAGCTTTAAGCACATGTATATTGGACATTTC | 640 a.u.
CTAGCCACTAAAACTGATGGCGCGAGAAACAAATTC | 533 a.u.
CTACTTTTTTTTTCTTGCGTGATCCTGCACTATTTC | 622 a.u.

Sample 4 — technique: RNA Bind-n-Seq; form: RNA; medium: in vitro; tested at: 365 nM; baseline: no-protein control; reading: higher = stronger binding
Target: RNA binding protein fox-1 homolog 2, RRM domain, GST-SBP tag (RBFOX2, Homo sapiens, UniProt O43251-10, residues 100-194)
Setting: natural RNA segment, single round, ends assumed
Constant ends, left off below: GGGAGUUCUACAGUCCGACGAUC … UGGAAUUCUCGGGUGCCAA
Construct (chain): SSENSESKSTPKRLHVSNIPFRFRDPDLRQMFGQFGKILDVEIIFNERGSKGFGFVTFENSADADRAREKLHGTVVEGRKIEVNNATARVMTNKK
Strand | RBNS enrichment (R)
UUGCCUCUUUCGUUUUACCUUCAUUUUUAGAUGAGGUAAAUGUUUUGUCUUUUACUUAAGGGUACUAAGCAAGGUCCACUCUAGUGUAGCUGAAGAGAAUGCAUAUUUGG | 0.73
GGAGCUGGCCCCUGGCUGCCUGGAGGACCCUGGGUAGGUCCUGAGGGUGGGAUGGAGAAGAGGGCACUGCUGUGGUGUGGGAGCAGUCCUGGGGCUUCCUGGUGGCUGUG | 0.641
CAAGGAGUUUUGAAAAGAAAUGCAAAGAACAAAACUACAACACUAUUUUUUAAAAAGUUGAGUAUCUGAGUUAAAAUUUCCAAAUCUUUAUUUUACACCACCUUAAAAAU | 0.892
GAAAUCAGGCCGUUUCCCUCCGCGUGCAUUGGUUUUGGUCUGUCUUUCAGUUCUGUUUCAAACUAGUGUAACACCACGCUGGCUCUAAUGUAUCUUUUCCACUUAUUGUU | 0.329
UUGGAAACAAAACUAAAAGCAAACUCAACAUAUGUGAUGUUUAUGGCCCUCAGAUCCUUAGUAUUGUGUGAUUUUCCCCCGUUAACAUGUCUUUCUAAAAUUGUCUAUUA | 0.959
UUGAAUGAGACGGCACCCAGUAAUCUUUGGAAACAUCAGAAGCUGCUCUCCAUUGACCUGGACAAAGUAGUGUUACCCAACUUUCGAUCCAAUCGCCCUCAAGUGAGACC | 0.448
CUGGCCAGCUAGAGACCGUUCUAAAGUCCACUGGAAGUCAAGAAUCUCGUUUACUGAUAAUAGUAAAGUUGAUUCAUGACCCCUGUCCUUUUUUUUCUACUGAUCUACCC | 0.271
UCUGAGCGCCUCCAUCCAAGGCCAGGUUCUCCGUUAGCUCCUGUGGCCCCACCCUGGGCCCUGGGCUGGAAUCAGGAAUAUUUUCCAAAGAGUGAUAGUCUUUUGCUUUU | 0.196

Sample 5 — technique: protein binding microarray; form: double-stranded DNA, one strand shown; medium: in vitro; tested at: not given; baseline: not given; reading: higher = stronger binding
Target: Histone acetyltransferase KAT6A, winged helix 1, GST fusion (KAT6A, Homo sapiens, UniProt Q92794, residues 1-85)
Setting: 8-mer, flanks averaged, mean of 2 arrays, mostly near background
Target sequence (chain): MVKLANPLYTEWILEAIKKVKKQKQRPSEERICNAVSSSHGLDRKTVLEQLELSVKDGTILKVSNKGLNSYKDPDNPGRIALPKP
Strand | E-score
CAGCTTGA | -0.148
GGCGGTCA | 0.334
GAGCACCA | -0.149
AATTGATA | -0.0733
ACCGATAA | -0.0262
ATTTTTGG | -0.155
ATACGAAA | -0.146
GCTACTGA | -0.109
AACAACTT | -0.13
CTACCTTA | -0.0558
CCCTGGAC | -0.173
GATCCGTA | 0.265
GCGCTGTA | 0.329
TCGCGGAA | 0.285
GACTTCAA | -0.144
ATGAGCCC | 0.0202
TACCTAGA | -0.221
AGGGGAAC | -0.186
AATCGATG | -0.195
GTTATGCA | -0.0958
CCGACCAC | -0.1
GTGATAGA | -0.0222
CCGCATGA | 0.113
ATATTCAC | -0.215
CGTTCTAG | 0.0243

Repeated from above (sample 2):
Strand | E-score
GTAAAGTA | 0.259
TATGAATA | 0.256
ATGTACAT | 0.261
AGGGGAGG | 0.316
TAGTTATA | 0.262
